Published values collected from several papers.
Values joined by “and” are separate records of one study, mostly repeats; a detail may differ. ± marks the error that the study gave.

Structure (SMILES)	assay	system	setting	scale	quantity	result
CCCCCOc1ccc(-c2ccc(-c3ccc(C(=O)N[C@H]4C[C@@H](O)[C@@H](O)NC(=O)[C@@H]5[C@@H](O)[C@@H](C)CN5C(=O)[C@H]([C@@H](C)O)NC(=O)[C@H]([C@H](O)[C@@H](O)c5ccc(O)cc5)NC(=O)[C@@H]5C[C@@H](O)CN5C(=O)[C@H]([C@@H](C)O)NC4=O)cc3)cc2)cc1	–	adult patients	iv, dose not given, 2, during treatment	–	patients with gastrointestinal adverse events	18.2%
CCCCCCCCCCCCCCCC[N+](C)(C)Cc1ccccc1	in vitro-in vivo extrapolation	human	–	–	hepatic clearance	3.39 mL/h/g liver
CC(C)C(=O)OC[C@H]1O[C@@H](n2ccc(NO)nc2=O)[C@H](O)[C@@H]1O	–	rat blood dialysate	250 ng/mL, time not given, three freeze-thaw cycles, with: NHC 1000 ng/mL	–	remaining compound	104 ± 5.39%
CN[C@@](C)(C[18F])C(=O)O	–	SCID mouse DU-145 xenograft, blood	60 min, post injection	–	tissue uptake	0.9 ± 0.1 %ID/g
CC[C@H](C)[C@H](NC(=O)[C@H](C)NC(=O)[C@H](CCCCN)NC(=O)[C@H](CC(C)C)NC(=O)[C@H](C)NC(=O)[C@@H](NC(=O)[C@H](Cc1c[nH]cn1)NC(=O)[C@H](CC(C)C)NC(=O)[C@@H](NC(=O)[C@@H](NC(=O)[C@H](CCCCN)NC(=O)[C@H](CCCCN)NC(=O)[C@H](C)NC(=O)[C@H](CO)NC(=O)[C@H](CCCCN)NC(=O)[C@H](Cc1ccccc1)NC(=O)[C@@H](NC(=O)[C@H](CCCCN)NC(=O)[C@H](CC(C)C)NC(=O)[C@H](Cc1ccccc1)NC(=O)[C@H](CO)NC(=O)[C@H](CCCCN)NC(=O)[C@H](Cc1c[nH]c2ccccc12)NC(=O)[C@H](CCCCN)NC(C)=O)[C@@H](C)O)[C@@H](C)O)C(C)C)[C@@H](C)O)C(=O)N[C@@H](CO)C(=O)N[C@@H](CO)C(N)=O	circular dichroism at 222 nm	buffer with 50% TFE	75 µM, 30 °C	–	mean residue ellipticity	-26300 deg cm² dmol⁻¹
Oc1ccc2ccc3c4ccccc4cc4ccc1c2c43	UPLC-AMS	human, plasma	oral, 250 ng of [14C]-BaP	–	AUC	35.7 ± 28.9 fg BaP equivalents·h/mL
CC(=O)N[C@H](CCCCNC(=O)C(C)F)C(=O)N[C@@H](CS)C(=O)N[C@@H](CS)C(=O)N[C@@H](CCC(=O)O)C(=O)N[C@@H](Cc1c[nH]cn1)C(=O)N[C@H](Cc1ccccc1)C(=O)N[C@@H](CCCNC(=N)N)C(=O)N[C@@H](Cc1c[nH]c2ccccc12)C(=O)N[C@@H](CS)C(=O)N[C@@H](CCCNC(=N)N)C(=O)N1CCC[C@H]1C(=O)N[C@H](C(N)=O)C(C)C (stereo partly drawn) [fluorine-18 labelled]	–	C57BL/6 mice, male, B16-F10 tumour, muscle	intravenous, 1 h	–	tissue uptake	0.33 ± 0.11 %ID/g
Cc1cc(C)c(/C=C2\C(=O)Nc3ccccc32)[nH]1	–	human patients without enzyme-inducing anticonvulsants, plasma	intravenous, 145 mg/m^2, week 6	–	terminal half-life	59.4 ± 22.8 min
CCCCCCCC[N+](C)(C)C	in vitro-in vivo extrapolation	human	–	–	hepatic clearance	1.35 mL/h/g liver
CCN(CC)CCCC(C)Nc1ccnc2cc(Cl)ccc12 (stereo not drawn)	–	male athymic BALB/c nude mice, xenograft, serum	intraperitoneal, 60 mg/kg every other day, 2 weeks, with: sulforaphane 5 mg/kg	–	AST activity	18.6 ± 2.85 U/L
CC(C)c1nc(CN(C)C(=O)N[C@H](C(=O)N[C@@H](Cc2ccccc2)C[C@H](O)[C@H](Cc2ccccc2)NC(=O)OCc2cncs2)C(C)C)cs1	–	healthy human volunteers, plasma	oral, dose not given, with: escitalopram plus 2D regimen	–	AUC(0-24)	8450 ng·h/mL
Cc1sc2c(c1C)C(c1ccc(Cl)cc1)=N[C@@H](CC(=O)OC(C)(C)C)c1nnc(C)n1-2	LC-MS	Ringer's solution	50 ng/mL, time not given, glass vessel, plastic vial	–	recovery vs nominal	14.4% and 7.79%
O=c1[nH]c(Cc2ccccn2)nc2c1cnn2C1CCOCC1	–	male human, plasma	oral, 2 mg, single dose	–	Tmax	19.8 min
CC1N=C(c2ccccc2F)c2cc(Nc3cccc(C#N)c3)ccc2NC1=O (stereo not drawn)	shake flask	PBS	24 h, pH 7.4	–	solubility	1.35 µM
O[C@H]1CCCN[C@@H]1CCCn1cnc2c(Cl)c(Cl)ccc21	–	healthy human volunteers, plasma	oral, 50 mg, day 1, multiple ascending dose	–	AUC(0-tau)	215 ng·h/mL
CC(C)C[C@@H](N)C(=O)N[C@H]1C(=O)N[C@@H](CC(N)=O)C(=O)N[C@H]2C(=O)N[C@H]3C(=O)N[C@H](C(=O)N[C@H](C(=O)O)c4cc(O)cc(O)c4-c4cc3ccc4O)[C@H](O)c3ccc(c(Cl)c3)Oc3cc2cc(c3O[C@@H]2O[C@H](CO)[C@@H](O)[C@H](O)[C@H]2O[C@H]2C[C@](C)(N)[C@H](O)[C@H](C)O2)Oc2ccc(cc2Cl)[C@H]1O	–	New Zealand White rabbit, ciliary body	continuous topical ocular, dose not given, 24 h	relative to: eye drops	AUC(0-24) ratio	~10 fold
CCCCCOc1ccc(-c2cc(-c3ccc(C(=O)N[C@H]4C[C@@H](O)[C@@H](O)NC(=O)[C@@H]5[C@@H](O)[C@@H](C)CN5C(=O)[C@H]([C@H](O)CC(N)=O)NC(=O)[C@H]([C@H](O)[C@@H](O)c5ccc(O)c(OS(=O)(=O)O)c5)NC(=O)[C@@H]5C[C@@H](O)CN5C(=O)[C@H]([C@@H](C)O)NC4=O)cc3)no2)cc1	–	human paediatric patients 6 to sample C years, plasma	intravenous, 3 mg/kg once daily, day 7, median	–	steady-state clearance	6.33 mL/min
O=C(N[C@@H](Cn1ccnc1)c1ccc(-c2ccc(F)cc2)cc1F)c1ccc(-c2nnc(-c3ccccc3)o2)cc1	–	mouse, plasma	oral, 25 mg/kg, DGAT formulation	–	Cmax	11000 ng/mL
O=C(c1ccc(F)c(F)c1Nc1ccc(I)cc1F)N1CC(O)([C@@H]2CCCCN2)C1	measured: retinal detachment	human patients	oral, 1 mg/kg, dose expansion, grade G3	–	treatment-related adverse events	0%
CSCC[C@@H]1NC(=O)[C@H](CC(=O)O)NC(=O)CNC(=O)[C@H](CCCNC(=N)N)NC(=O)[C@H](C)NC(=O)[C@H](CCC(=O)O)NC(=O)[C@H](CCCNC(=N)N)NC(=O)[C@@H]2CSSC[C@@H]3NC(=O)[C@H](CO)NC(=O)[C@H]([C@@H](C)O)NC(=O)[C@@H]4CCCN4C(=O)[C@H](C)NC(=O)[C@H](Cc4c[nH]c5ccccc45)NC(=O)[C@H](CC(=O)O)NC(=O)CNC(=O)[C@H](CCCNC(=N)N)NC(=O)CNC(=O)[C@H](CCC(N)=O)NC(=O)[C@@H]4CCCN4C(=O)[C@@H](NC(=O)CNC(=O)C(C)F)CSSC[C@H](NC(=O)CNC(=O)[C@H](C)NC(=O)[C@H](CC(C)C)NC(=O)[C@H](CSSC[C@@H](C(=O)NCC(N)=O)NC(=O)[C@H]([C@@H](C)O)NC(=O)[C@H](CCCNC(=N)N)NC(=O)[C@@H]4CCCN4C1=O)NC(=O)[C@H](CC(=O)O)NC(=O)[C@H](CO)NC(=O)[C@H](CC(=O)O)NC(=O)[C@H](CCC(N)=O)NC(=O)[C@H](CO)NC3=O)C(=O)N[C@@H](C(C)C)C(=O)N2 (stereo partly drawn) [fluorine-18 labelled]	–	nude mice U-87 MG xenograft, pancreas	intravenous, 1 h	–	tissue uptake	0.22 ± 0.02 %ID/g
COC(=O)N[C@H](C(=O)N1CCC[C@H]1C(=O)Nc1ccc([C@@H]2CC[C@@H](c3ccc(NC(=O)[C@@H]4CCCN4C(=O)[C@@H](NC(=O)OC)C(C)C)cc3)N2c2ccc(C(C)(C)C)cc2)cc1)C(C)C	–	healthy human volunteers, plasma	oral, dose not given, with: omeprazole plus 2D regimen	–	AUC(0-24)	1480 ng·h/mL
NC(=O)c1nc(F)c[nH]c1=O	UV-Vis spectrophotometry	supercritical CO2	120 min, 318 K, 30 MPa, 890.92 kg/m^3	–	solubility	2060 µg/mL
COc1c(OCCCN2CCOCC2)ccc2c1N=C(NC(=O)c1cnc(N)nc1)N1CCN=C21	–	human, plasma	intravenous, cycle 1 day 1, all cohorts	–	median Tmax	~60 min
Cc1ccc(Nc2nccc(N(C)c3ccc4c(C)n(C)nc4c3)n2)cc1S(N)(=O)=O	–	patients, plasma	oral, 600 mg, 24 h, with food, geometric mean, with: pantoprazole	–	Cmin	29500 ng/mL
Cc1ccc(N)cc1N	–	EpiDerm EPI-200 skin tissue	concentration not given, 48 h protocol, two treatments	relative to: solvent control	micronucleated binucleated cells	increased
[123I]c1cncc(OC[C@@H]2CCN2)c1	SPECT	human, cerebellum	intravenous bolus, 2.1 mCi	relative to: tissue over plasma	tissue/plasma ratio	13.6
CC(C)C[C@H](NC(=O)[C@H](CCC(=O)O)NC(=O)[C@H](CCC(=O)O)NC(=O)[C@H](CC(=O)O)NC(=O)[C@H](CCC(=O)O)NC(=O)[C@H](CCC(=O)O)NC(=O)[C@H](CCC(=O)O)NC(=O)[C@@H](N)CC(=O)O)C(=O)O	–	rat, plasma	intranasal, 5.5 mg/kg single dose, 90 min	–	plasma concentration	31.9 ng/mL
O=C(NCCS)c1cccc(C(=O)NCCS)c1	–	rat Sprague-Dawley male	intravenous, 1 mg/kg, 3 h	–	plasma concentration	100 ng/mL
CC[C@H](C)[C@H](NC(=O)[C@@H](N)CCCNC(=N)N)C(=O)N[C@H](C(=O)N1CCC[C@H]1C(=O)N[C@@H](C)C(N)=O)C(C)C	–	healthy volunteers, both sexes, plasma	intravenous infusion, 3.0 mg/kg daily, day 7, multiple ascending dose	–	AUC(0-t)	1000 ± 321 ng·h/mL
CC[C@H](C)[C@H](NC(=O)[C@H](CC(C)C)NC(=O)[C@H](Cc1c[nH]c2ccccc12)NC(=O)[C@H](CCC(N)=O)NC(=O)[C@@H](NC(=O)[C@H](Cc1ccccc1)NC(=O)[C@H](C)NC(=O)[C@H](CCCCNC(=O)COCCOCCNC(=O)COCCOCCNC(=O)CC[C@H](NC(=O)CCCCCCCCCCCCCCCCCCC(=O)O)C(=O)O)NC(=O)[C@H](CCC(N)=O)NC(=O)[C@H](C)NC(=O)[C@@H](NC(=O)[C@H](CCCCN)NC(=O)[C@H](CC(=O)O)NC(=O)[C@H](CC(C)C)NC(=O)C(C)(C)NC(=O)[C@@H](NC(=O)[C@H](CO)NC(=O)[C@H](Cc1ccc(O)cc1)NC(=O)[C@H](CC(=O)O)NC(=O)[C@H](CO)NC(=O)[C@@H](NC(=O)[C@H](Cc1ccccc1)NC(=O)[C@@H](NC(=O)CNC(=O)[C@H](CCC(=O)O)NC(=O)C(C)(C)NC(=O)[C@@H](N)Cc1ccc(O)cc1)[C@@H](C)O)[C@@H](C)O)[C@@H](C)CC)[C@@H](C)CC)C(C)C)C(=O)N[C@@H](C)C(=O)NCC(=O)NCC(=O)N1CCC[C@H]1C(=O)N[C@@H](CO)C(=O)N[C@@H](CO)C(=O)NCC(=O)N[C@@H](C)C(=O)N1CCC[C@H]1C(=O)N1CCC[C@H]1C(=O)N1CCC[C@H]1C(=O)N[C@@H](CO)C(N)=O	–	humans with end-stage renal disease	subcutaneous, 5 mg	relative to: ESRD over normal renal function	AUC∞ ratio	1.16

For quick reference, copied from above:
Structure (SMILES)	assay	system	setting	scale	quantity	result
Cc1sc2c(c1C)C(c1ccc(Cl)cc1)=N[C@@H](CC(=O)OC(C)(C)C)c1nnc(C)n1-2	LC-MS	Ringer's solution	50 ng/mL, time not given, glass vessel, plastic vial	–	recovery vs nominal	14.4% and 7.79%
O=c1[nH]c(Cc2ccccn2)nc2c1cnn2C1CCOCC1	–	male human, plasma	oral, 2 mg, single dose	–	Tmax	19.8 min
CC1N=C(c2ccccc2F)c2cc(Nc3cccc(C#N)c3)ccc2NC1=O (stereo not drawn)	shake flask	PBS	24 h, pH 7.4	–	solubility	1.35 µM
O[C@H]1CCCN[C@@H]1CCCn1cnc2c(Cl)c(Cl)ccc21	–	healthy human volunteers, plasma	oral, 50 mg, day 1, multiple ascending dose	–	AUC(0-tau)	215 ng·h/mL
